Measurements of several laboratories.
Protocols differ between the studies behind these lines.
Organism: Klebsiella pneumoniae

SMILES | test | system | setting | MIC
N=C(N)c1ccc(OCc2cc(Br)cc(COc3ccc(C(=N)N)cc3)c2)cc1 |  | ATCC 13883 | compound alone | > 200 µg/mL
O=C(Cc1ccccc1)N[C@@H]1C(=O)N2C(C(=O)O)=C(CSc3cccc4cccnc34)C[S+]([O-])[C@H]12 (stereo partly drawn) |  | N11-2218 |  | > 128 µg/mL
C[C@H]1COc2c(N3CCN(C)CC3)c(F)cc3c(=O)c(C(=O)O)cn1c23 | agar dilution | 16-14 ESBL |  | 0.5 µg/mL
CO/N=C(\C(=O)N[C@@H]1C(=O)N2C(C(=O)O)=C(COC(C)=O)CS[C@H]12)c1csc(N)n1 |  | DOU, CTX-M-15, Mueller-Hinton broth | overnight, 37 °C | 8 µg/mL
O=C(O)c1ccc(NCc2cc(Br)ccc2O)cc1 | broth microdilution |  |  | 64 µg/mL
N#Cc1ccc2[nH]c(CNCC34CC5CC(CC(C5)C3)C4)nc2c1 |  | ATCC 700603 |  | > 128 µg/mL
N=C(N)c1cccc(OCc2ccc(COc3cccc(C(=N)N)c3)cc2)c1 |  | ATCC 13883 | compound alone | > 200 µg/mL
CCN1CCN(C(=O)N[C@@H](C(=O)N[C@@H]2C(=O)N3[C@@H]2SC(C)(C)[C@@H]3C(=O)O)c2ccccc2)C(=O)C1=O | broth microdilution | ATCC 43816 acrAB knockout |  | 1 µg/mL
O=C(O)c1cn(C2CC2)c2cc(N3CCNCC3)c(F)cc2c1=O |  | ALE CTX-M-15, Mueller Hinton broth | overnight, 37 °C | > 512 µg/mL
O=C(O)c1ccc(NCc2cccc(C(F)(F)F)c2)cc1 | broth microdilution |  |  | 256 µg/mL
NC[C@H]1O[C@H](O[C@H]2[C@H](O)[C@@H](O[C@H]3O[C@H](CO)[C@@H](O)[C@H](N)[C@H]3O)[C@H](N)C[C@@H]2N)[C@H](N)C[C@@H]1O | broth microdilution | NCTC 13438 | 24 h, 5% CO2 | 32 µg/mL
COc1cc(CNc2ccc(C(=O)O)cc2)cc(OC)c1O | broth microdilution |  |  | 64 µg/mL
CN(C)c1ccc(O)c2c1C[C@H]1C[C@H]3[C@H](N(C)C)C(O)=C(C(N)=O)C(=O)[C@@]3(O)C(O)=C1C2=O | broth microdilution | ATCC 43816 acrAB knockout |  | < 0.5 µg/mL
CC[C@H](C)[C@H](NC(=O)[C@H](CCCCN)NC(=O)[C@H](CCC(=O)O)NC(=O)[C@H](CCCCN)NC(=O)[C@H](CO)NC(=O)[C@H](CCCCN)NC(=O)[C@H](CCCNC(=N)N)NC(=O)[C@H](Cc1ccccc1)NC(=O)[C@H](Cc1ccccc1)NC(=O)[C@H](CC(=O)O)NC(=O)CNC(=O)[C@H](CC(C)C)NC(=O)[C@@H](N)CC(C)C)C(=O)NCC(=O)N[C@@H](CCCCN)C(=O)N[C@@H](CCC(=O)O)C(=O)N[C@@H](Cc1ccccc1)C(=O)N[C@@H](CCCCN)C(=O)N[C@@H](CCCNC(=N)N)C(=O)N[C@H](C(=O)N[C@H](C(=O)N[C@@H](CCC(N)=O)C(=O)N[C@@H](CCCNC(=N)N)C(=O)N[C@H](C(=O)N[C@@H](CCCCN)C(=O)N[C@@H](CC(=O)O)C(=O)N[C@@H](Cc1ccccc1)C(=O)N[C@@H](CC(C)C)C(=O)N[C@@H](CCCNC(=N)N)C(=O)N[C@@H](CC(N)=O)C(=O)N[C@@H](CC(C)C)C(=O)N[C@H](C(=O)N1CCC[C@H]1C(=O)N[C@@H](CCCNC(=N)N)C(=O)N[C@H](C(=O)N[C@@H](CCC(=O)O)C(=O)N[C@@H](CO)C(=O)O)[C@@H](C)O)C(C)C)[C@@H](C)CC)C(C)C)[C@@H](C)CC |  | ATCC 43823 | highest concentration 50 µM | 16.7 µM
CC1(C)S[C@@H]2[C@H](NC(=O)[C@H](N)c3ccccc3)C(=O)N2[C@H]1C(=O)O | broth microdilution | clinical isolate, Mueller-Hinton broth | 24 h, 37 °C | > 400 µM
Cc1c(CN(C)C(=O)/C=C/c2cnc3c(c2)CCC(=O)N3)oc2ccccc12 | broth microdilution | S20595 |  | > 32 µg/mL
CC1(C)S[C@@H]2[C@H](NC(=O)[C@H](N)c3ccccc3)C(=O)N2[C@H]1C(=O)O |  | DOU CTX-M-15, Mueller Hinton broth | overnight, 37 °C | > 512 µg/mL
C[C@@H](O)[C@H]1C(=O)N2C(C(=O)O)=C(SCCN=CN)C[C@H]12 | broth microdilution, MH medium | NCCP 16054 | 16 h, 37 °C, growth inhibition over 99% | 0.5 µM
CNC(C)C1CCC(N)C(OC2C(N)CC(N)C(OC3OCC(C)(O)C(NC)C3O)C2O)O1 (stereo not drawn) | broth microdilution | NCTC 13438 | 24 h, 5% CO2 | 4 µg/mL
c1ccc(OCCn2c(CNC34CC5CC(CC(C5)C3)C4)nc3ccccc32)cc1 |  | ATCC 700603 |  | > 128 µg/mL
CNC(C)C1CCC(N)C(OC2C(N)CC(N)C(OC3OCC(C)(O)C(NC)C3O)C2O)O1 (stereo not drawn) |  | 9908, RPMI 1640 10% FBS | 18 to 24 h, 37 °C | 12.5 µM
CO[C@@]1(NC(=O)Cc2cccs2)C(=O)N2C(C(=O)O)=C(COC(N)=O)CS[C@@H]21 | broth microdilution | ATCC 43816 acrAB knockout |  | 1 µg/mL
O=C(N[C@H](CO)[C@H](O)c1ccc([N+](=O)[O-])cc1)C(Cl)Cl | broth microdilution | NCTC 13438 | 24 h, 5% CO2 | 32 µg/mL

SMILES | test | system | setting | MIC
N=C(N)c1ccc(OCc2cc(COc3ccc(C(=N)N)cc3)cc(-c3ccccc3)c2)cc1 |  | ATCC 13883 | compound alone | > 200 µg/mL
O=C(O)c1ccc(NCc2ccc(Cl)cc2)cc1 | broth microdilution |  |  | 64 µg/mL
Cc1cc(-c2cn[nH]c2-c2cccc(OCc3cccc(C#N)c3)c2)cc(C)n1 | broth microdilution | ATCC 27736 |  | 1 µg/mL
C[C@@H](O)[C@H]1C(=O)N2C(C(=O)O)=C(SCCN=CN)C[C@H]12 | broth microdilution | NCTC 13438 | 24 h, 5% CO2 | 128 µg/mL
NC(=O)[C@@H]1CC[C@@H]2CN1C(=O)N2OS(=O)(=O)O |  | 17-29 ESBL | compound alone | 32 µg/mL
O=C(Cc1ccccc1)N[C@@H]1C(=O)N2C(C(=O)O)=C(CSc3cccc4cccnc34)CS(=O)(=O)[C@H]12 |  | 11228 |  | 32 µg/mL
CN(C)c1ccc(O)c2c1C[C@H]1C[C@H]3[C@H](N(C)C)C(O)=C(C(N)=O)C(=O)[C@@]3(O)C(O)=C1C2=O | broth microdilution | NCTC 13438 | 24 h, 5% CO2 | 4 µg/mL
O=[N+]([O-])c1ccc2[nH]c(CNCC34CC5CC(CC(C5)C3)C4)nc2c1 |  | ATCC 700603 |  | > 128 µg/mL
CN[C@@H]1[C@@H](O[C@H]2O[C@H](CO)[C@@H](N)[C@H](O)[C@H]2O)OC2C[C@@H](N)[C@@H](O[C@H]3[C@H](O)[C@@H](O)[C@H](N)C[C@@H]3N)OC2[C@@H]1O (stereo partly drawn) | broth microdilution | NCTC 13438 | 24 h, ambient air | 4 µg/mL
C[C@@H](O)[C@H]1C(=O)N2C(C(=O)O)=C(S[C@@H]3CN[C@H](C(=O)N(C)C)C3)[C@H](C)[C@H]12 | broth microdilution | KP | 18 h | 0.031 µg/mL
NC[C@H]1O[C@H](O[C@H]2[C@H](O)[C@@H](O[C@H]3O[C@H](CO)[C@@H](O)[C@H](N)[C@H]3O)[C@H](N)C[C@@H]2N)[C@H](O)[C@@H](O)[C@@H]1O | broth microdilution | ATCC 43816 | 16 h, 37 °C, cation-adjusted Mueller-Hinton broth | 1 µg/mL
Cc1c(CN(C)C(=O)/C=C/c2cnc3c(c2)CC(NC(=O)OC(C)(C)C)C(=O)N3)oc2ccccc12 (stereo not drawn) | broth microdilution | AR-0542 |  | > 32 µg/mL
CO/N=C(\C(=O)N[C@@H]1C(=O)N2C(C(=O)O)=C(CSc3nc(=O)c(=O)[nH]n3C)CS[C@H]12)c1csc(N)n1 |  | ALE CTX-M-15, Mueller Hinton broth | overnight, 37 °C | > 512 µg/mL
Cc1cc(NS(=O)(=O)c2ccc(N)cc2)no1 | broth microdilution | NCTC 13438 | 24 h, ambient air | > 512 µg/mL
C[C@@H](O)[C@H]1C(=O)N2C(C(=O)O)=C(S[C@@H]3CN[C@H](C(=O)N(C)C)C3)[C@H](C)[C@H]12 |  | DOU CTX-M-15, Mueller Hinton broth | overnight, 37 °C | > 512 µg/mL
CC(C)(O/N=C(\C(=O)N[C@@H]1C(=O)N2C(C(=O)[O-])=C(C[n+]3ccccc3)CS[C@H]12)c1csc(N)n1)C(=O)O | broth microdilution | KP | 18 h | 8 µg/mL
CN(C)[C@@H]1C(O)=C(C(N)=O)C(=O)[C@@]2(O)C(O)=C3C(=O)c4c(O)cccc4[C@@](C)(O)[C@H]3C[C@@H]12 | broth microdilution | BNCC 359393 |  | 4 µg/mL
N=C(N)c1ccc(OCc2ccc(Br)cc2COc2ccc(C(=N)N)cc2)cc1 |  | ATCC 13883 | compound alone | > 200 µg/mL
CC(C)(O/N=C(\C(=O)N[C@@H]1C(=O)N2C(C(=O)[O-])=C(C[n+]3ccccc3)CS[C@H]12)c1csc(N)n1)C(=O)O | broth microdilution | ATCC 43816 acrAB knockout |  | < 0.5 µg/mL
C[C@H]1[C@H](NC(=O)/C(=N\OC(C)(C)C(=O)O)c2csc(N)n2)C(=O)N1S(=O)(=O)O | agar dilution | 16-14 ESBL |  | 4 µg/mL
O=C(O)c1ccc(NCc2cccc(O)c2O)cc1 | broth microdilution |  |  | 256 µg/mL
O=C(Cc1ccccc1)N[C@@H]1C(=O)N2C(C(=O)O)=C(CSc3cccc4cccnc34)CS[C@H]12 |  | N11-2218 |  | > 128 µg/mL

Excerpt of the above:
SMILES | test | system | setting | MIC
C[C@@H](O)[C@H]1C(=O)N2C(C(=O)O)=C(SCCN=CN)C[C@H]12 | broth microdilution | NCTC 13438 | 24 h, 5% CO2 | 128 µg/mL
NC(=O)[C@@H]1CC[C@@H]2CN1C(=O)N2OS(=O)(=O)O |  | 17-29 ESBL | compound alone | 32 µg/mL
O=C(Cc1ccccc1)N[C@@H]1C(=O)N2C(C(=O)O)=C(CSc3cccc4cccnc34)CS(=O)(=O)[C@H]12 |  | 11228 |  | 32 µg/mL
CN(C)c1ccc(O)c2c1C[C@H]1C[C@H]3[C@H](N(C)C)C(O)=C(C(N)=O)C(=O)[C@@]3(O)C(O)=C1C2=O | broth microdilution | NCTC 13438 | 24 h, 5% CO2 | 4 µg/mL
